# Assay results of several laboratories.
# Parts stem from different laboratories: compare values within a part only. “And” joins repeats or separate records; there may be more than shown.
# Chain of UniProt P19784 (whole entry, looked up): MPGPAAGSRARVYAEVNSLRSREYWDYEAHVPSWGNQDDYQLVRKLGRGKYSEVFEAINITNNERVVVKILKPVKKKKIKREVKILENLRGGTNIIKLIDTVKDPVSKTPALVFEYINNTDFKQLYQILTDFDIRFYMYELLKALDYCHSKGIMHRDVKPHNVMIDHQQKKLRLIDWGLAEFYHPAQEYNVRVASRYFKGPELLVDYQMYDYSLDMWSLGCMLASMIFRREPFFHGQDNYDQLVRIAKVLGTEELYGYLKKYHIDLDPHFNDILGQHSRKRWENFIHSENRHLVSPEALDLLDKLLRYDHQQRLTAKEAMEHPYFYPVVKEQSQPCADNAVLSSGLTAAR
# Chain of UniProt O95835 (whole entry, looked up): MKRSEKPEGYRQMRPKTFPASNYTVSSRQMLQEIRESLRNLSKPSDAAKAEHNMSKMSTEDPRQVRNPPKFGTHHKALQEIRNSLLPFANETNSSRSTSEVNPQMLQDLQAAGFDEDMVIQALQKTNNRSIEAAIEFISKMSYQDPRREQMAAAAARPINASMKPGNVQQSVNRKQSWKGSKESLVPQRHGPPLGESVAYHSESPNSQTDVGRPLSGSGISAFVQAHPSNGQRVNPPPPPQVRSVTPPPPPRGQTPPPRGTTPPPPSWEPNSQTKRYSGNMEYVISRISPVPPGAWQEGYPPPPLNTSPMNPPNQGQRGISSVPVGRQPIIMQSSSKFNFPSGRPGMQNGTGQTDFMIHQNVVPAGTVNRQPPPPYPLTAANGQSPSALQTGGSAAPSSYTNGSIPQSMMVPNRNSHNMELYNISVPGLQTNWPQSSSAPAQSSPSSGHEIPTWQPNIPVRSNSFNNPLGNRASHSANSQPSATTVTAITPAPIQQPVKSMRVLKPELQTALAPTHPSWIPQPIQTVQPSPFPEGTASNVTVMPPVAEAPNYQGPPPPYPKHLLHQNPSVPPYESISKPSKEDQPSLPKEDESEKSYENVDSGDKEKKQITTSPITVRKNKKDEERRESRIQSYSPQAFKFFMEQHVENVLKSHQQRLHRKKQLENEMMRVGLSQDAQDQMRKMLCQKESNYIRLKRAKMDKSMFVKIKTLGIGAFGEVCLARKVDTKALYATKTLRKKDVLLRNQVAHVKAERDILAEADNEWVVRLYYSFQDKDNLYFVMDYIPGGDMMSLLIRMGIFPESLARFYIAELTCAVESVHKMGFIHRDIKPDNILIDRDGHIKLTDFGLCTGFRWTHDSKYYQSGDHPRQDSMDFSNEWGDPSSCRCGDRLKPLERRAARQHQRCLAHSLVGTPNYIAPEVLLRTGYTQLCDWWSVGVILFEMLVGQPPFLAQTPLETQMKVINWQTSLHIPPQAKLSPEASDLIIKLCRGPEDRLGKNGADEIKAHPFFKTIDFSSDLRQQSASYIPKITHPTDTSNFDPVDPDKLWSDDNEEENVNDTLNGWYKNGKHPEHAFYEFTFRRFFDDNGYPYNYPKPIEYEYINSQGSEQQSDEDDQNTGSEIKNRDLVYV

# Series 1
# Target: DNA polymerase theta, ATPase domain (POLQ, Homo sapiens, UniProt O75417)
# Chain of UniProt O75417 (whole entry, unmodified, looked up): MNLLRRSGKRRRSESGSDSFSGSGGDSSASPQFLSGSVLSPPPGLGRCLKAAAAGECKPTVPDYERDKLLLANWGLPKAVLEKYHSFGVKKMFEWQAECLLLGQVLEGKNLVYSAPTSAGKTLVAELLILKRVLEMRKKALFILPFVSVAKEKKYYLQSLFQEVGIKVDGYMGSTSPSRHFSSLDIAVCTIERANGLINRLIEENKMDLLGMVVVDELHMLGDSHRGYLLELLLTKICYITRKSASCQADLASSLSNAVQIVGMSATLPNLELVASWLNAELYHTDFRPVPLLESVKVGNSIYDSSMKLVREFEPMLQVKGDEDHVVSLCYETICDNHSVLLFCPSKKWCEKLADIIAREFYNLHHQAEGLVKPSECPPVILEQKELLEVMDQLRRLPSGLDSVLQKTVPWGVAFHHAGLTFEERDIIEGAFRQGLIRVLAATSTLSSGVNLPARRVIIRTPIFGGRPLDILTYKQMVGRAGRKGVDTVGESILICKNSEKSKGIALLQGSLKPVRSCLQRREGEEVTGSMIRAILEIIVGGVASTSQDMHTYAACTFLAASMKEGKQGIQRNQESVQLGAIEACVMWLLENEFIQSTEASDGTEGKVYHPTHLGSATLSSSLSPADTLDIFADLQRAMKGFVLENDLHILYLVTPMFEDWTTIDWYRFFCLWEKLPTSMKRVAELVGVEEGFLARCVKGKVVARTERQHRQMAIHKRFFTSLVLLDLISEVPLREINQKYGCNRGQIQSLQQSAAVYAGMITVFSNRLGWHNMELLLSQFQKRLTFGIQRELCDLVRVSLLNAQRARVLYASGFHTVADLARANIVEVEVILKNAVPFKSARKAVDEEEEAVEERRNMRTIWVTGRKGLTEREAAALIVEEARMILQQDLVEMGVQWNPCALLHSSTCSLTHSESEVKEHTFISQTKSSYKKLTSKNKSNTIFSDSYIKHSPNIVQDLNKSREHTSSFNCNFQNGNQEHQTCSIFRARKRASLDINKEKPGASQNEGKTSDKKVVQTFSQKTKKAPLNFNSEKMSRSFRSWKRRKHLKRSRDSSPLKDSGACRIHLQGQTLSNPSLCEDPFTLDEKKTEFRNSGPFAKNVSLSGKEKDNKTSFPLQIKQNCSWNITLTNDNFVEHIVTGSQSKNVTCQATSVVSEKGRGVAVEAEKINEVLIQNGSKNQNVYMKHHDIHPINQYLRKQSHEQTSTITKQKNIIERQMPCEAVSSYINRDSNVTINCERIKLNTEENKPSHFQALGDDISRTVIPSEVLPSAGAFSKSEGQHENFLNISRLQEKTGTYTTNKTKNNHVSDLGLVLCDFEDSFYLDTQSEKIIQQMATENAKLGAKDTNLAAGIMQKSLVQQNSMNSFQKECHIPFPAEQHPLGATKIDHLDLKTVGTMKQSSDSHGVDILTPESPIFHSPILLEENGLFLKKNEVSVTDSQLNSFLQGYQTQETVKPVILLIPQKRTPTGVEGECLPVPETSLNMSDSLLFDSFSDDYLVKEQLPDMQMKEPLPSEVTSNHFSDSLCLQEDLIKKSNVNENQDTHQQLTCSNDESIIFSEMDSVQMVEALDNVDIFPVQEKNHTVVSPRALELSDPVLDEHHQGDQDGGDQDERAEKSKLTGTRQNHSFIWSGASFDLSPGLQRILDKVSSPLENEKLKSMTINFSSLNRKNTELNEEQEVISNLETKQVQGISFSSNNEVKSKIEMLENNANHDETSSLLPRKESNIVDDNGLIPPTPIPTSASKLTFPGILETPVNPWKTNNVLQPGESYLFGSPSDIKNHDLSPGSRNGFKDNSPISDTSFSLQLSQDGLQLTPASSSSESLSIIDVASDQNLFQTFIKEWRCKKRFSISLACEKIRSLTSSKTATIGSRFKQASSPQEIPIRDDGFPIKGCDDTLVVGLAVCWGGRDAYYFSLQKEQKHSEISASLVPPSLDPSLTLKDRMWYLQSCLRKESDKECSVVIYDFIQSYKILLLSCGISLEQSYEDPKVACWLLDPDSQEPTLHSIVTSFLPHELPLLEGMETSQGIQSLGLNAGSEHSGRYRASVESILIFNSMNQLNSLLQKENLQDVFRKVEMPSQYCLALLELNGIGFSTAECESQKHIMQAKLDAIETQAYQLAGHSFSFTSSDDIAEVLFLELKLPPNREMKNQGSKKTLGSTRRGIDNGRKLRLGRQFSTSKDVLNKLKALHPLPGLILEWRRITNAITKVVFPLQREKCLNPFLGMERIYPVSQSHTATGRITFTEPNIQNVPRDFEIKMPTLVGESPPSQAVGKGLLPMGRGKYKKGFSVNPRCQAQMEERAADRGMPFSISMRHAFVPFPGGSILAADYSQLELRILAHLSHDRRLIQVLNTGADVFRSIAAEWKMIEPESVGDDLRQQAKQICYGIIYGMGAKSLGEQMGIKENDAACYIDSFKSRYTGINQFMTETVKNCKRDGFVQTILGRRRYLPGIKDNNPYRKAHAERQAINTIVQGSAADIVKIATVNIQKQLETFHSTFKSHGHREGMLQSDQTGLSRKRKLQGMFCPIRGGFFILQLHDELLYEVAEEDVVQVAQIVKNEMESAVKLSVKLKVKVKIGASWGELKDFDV
# Observed: enzyme activity
# Action: inhibitor
# Concentration: 77 µM
# Relative to: untreated
SMILES,remaining activity
CCc1cc(C(N)=S)ccn1,93.4% and 100%
NS(=O)(=O)c1ccc(N=Nc2c(O)[nH]c3ccc(Br)cc23)cc1,102%
O=C(Nc1ccccc1)N1CCN(c2nc(-c3ccccc3)ns2)CC1,100%
COc1cc2nccc(Oc3ccc(NC(=S)NC(=O)c4ccccc4C)cc3)c2cc1OC,111%
CC(C)(Oc1ccc(C2CC2(Cl)Cl)cc1)C(=O)O (centres unmarked),99.2%
CC(CNC1CCCCC1)OC(=O)c1ccccc1 (centres unmarked),102%
O=C(CCCc1ccc(-c2ccccc2F)cc1)Nc1ccc(O)cc1,106%
C[C@]12CC[C@@H]3c4ccc(O)cc4CC[C@H]3[C@@H]1CCC2=O,104% and 105% and 100%
Cc1cc2cc3c(C)cc(=O)oc3c(C)c2o1,104%

# Series 2
# Host: mouse
# Medium: microsomes or S9
# Concentration: 2 µM
# Time: 0.5 h
SMILES,remaining compound [%]
Cc1ccc(C(OC(=O)CC(C)C)c2cc(=O)cc[nH]2)cc1 (centres unmarked),0.0103
N=c1n(CCN2CCCCC2)c2ccccc2n1CC(O)c1ccccc1 (centres unmarked),25.7
CC(C)CN1C(=O)C2C3CC4C5(C)CCCC(C)(C(=O)O)C5CCC4(C=C3C(C)C)C2C1=O (centres unmarked),28.8
CCOC(=O)c1cc2cc(NC(=N)N)ccc2s1,3.15
O=c1[nH]ccn2nc(-c3ccc(F)cc3)c(CO)c12,23.7
COC(=O)c1ccc(C2NN(C)C3C(=O)N(C(C)C)C(=O)C23)cc1 (centres unmarked),67.6
Nc1ccc(-c2ccc(S(=O)(=O)c3cccc(N)c3)cc2N)cc1,5.5
COc1ccc2cc(C(=O)OCc3ccc(-n4nc(C)cc4C)cc3)[nH]c2c1,4.01

# Series 3
# Target: Calcium/calmodulin-dependent protein kinase type II subunit alpha (CAMK2A, Homo sapiens, UniProt Q9UQM7)
# Chain of UniProt Q9UQM7 (whole entry, looked up): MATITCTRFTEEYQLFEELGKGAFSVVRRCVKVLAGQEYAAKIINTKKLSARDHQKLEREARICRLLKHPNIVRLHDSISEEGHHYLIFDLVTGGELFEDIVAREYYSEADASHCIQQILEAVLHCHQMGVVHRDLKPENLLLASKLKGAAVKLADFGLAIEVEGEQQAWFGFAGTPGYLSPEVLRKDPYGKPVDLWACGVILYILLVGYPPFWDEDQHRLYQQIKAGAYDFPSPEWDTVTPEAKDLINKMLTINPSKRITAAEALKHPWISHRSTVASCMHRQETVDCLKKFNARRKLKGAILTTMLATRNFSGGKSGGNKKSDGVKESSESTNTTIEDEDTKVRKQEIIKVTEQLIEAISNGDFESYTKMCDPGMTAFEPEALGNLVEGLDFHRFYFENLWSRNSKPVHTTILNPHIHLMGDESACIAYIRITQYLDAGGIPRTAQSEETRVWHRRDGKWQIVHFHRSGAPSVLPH
# Observed: enzyme activity
# Action: inhibitor
# Concentration: 10 µM
SMILES,inhibition
NCCCCCN,-48%
NS(=O)(=O)c1cc(Cl)c(Cl)c(S(N)(=O)=O)c1,-3%
O=C(OC1Cc2c(O)cc(O)cc2OC1c1cc(O)c(O)c(O)c1)c1cc(O)c(O)c(O)c1 (centres unmarked),-63%
C=CC(C)(O)CCC=C(C)C (centres unmarked),-23%

# Series 4
# SMILES: Cc1nc(Nc2ncc(C(=O)Nc3c(C)cccc3Cl)s2)cc(N2CCN(CCO)CC2)n1
# Action: inhibitor
target,conditions,inhibition [%]
"NUAK family SNF1-like kinase 2 (NUAK2, Homo sapiens, UniProt Q9H093)",1 µM,< 50
"Aurora kinase C (AURKC, Homo sapiens, UniProt Q9UQB9)",10 µM,74
"Serine/threonine-protein kinase 3 (STK3, Homo sapiens, UniProt Q13188)",10 µM,< 50
"Atypical kinase COQ8B, mitochondrial (COQ8B, Homo sapiens, UniProt Q96D53)",10 µM,< 50
"Serine/threonine-protein kinase LATS1 (LATS1, Homo sapiens, UniProt O95835)",10 µM,< 50
"Casein kinase II subunit alpha' (CSNK2A2, Homo sapiens, UniProt P19784)",10 µM,< 50

# Series 5
# Target: 5-hydroxytryptamine receptor 1E (HTR1E, Homo sapiens, UniProt P28566)
# Chain of UniProt P28566 (whole entry, looked up): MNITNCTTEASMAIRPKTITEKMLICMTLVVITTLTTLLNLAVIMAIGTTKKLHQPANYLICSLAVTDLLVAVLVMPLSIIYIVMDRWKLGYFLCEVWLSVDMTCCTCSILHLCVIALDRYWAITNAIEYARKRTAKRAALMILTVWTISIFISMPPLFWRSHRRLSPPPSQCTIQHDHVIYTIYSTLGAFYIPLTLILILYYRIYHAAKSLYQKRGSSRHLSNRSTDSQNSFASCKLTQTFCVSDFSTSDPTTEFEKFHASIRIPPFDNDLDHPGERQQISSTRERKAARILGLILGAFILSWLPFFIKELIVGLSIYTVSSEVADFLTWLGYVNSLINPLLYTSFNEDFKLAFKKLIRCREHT
# Observed: cell-free assay
# Concentration: 10 µM
Structure (SMILES),inhibition
COCCc1ccc(-c2c(C)nc3c(N4CCOCC4)ccnn23)cn1,-16.2%
Cc1ccccc1Oc1cc(-n2c(=O)cc(C(F)(F)F)[nH]c2=O)c2ccccc2c1Cl,4.31%
CN1CCN(c2ccnc(NCCc3ccccc3)n2)CC1,19.5%
CN(C)[C@H]1CCN(c2cc(-c3ccccc3)nc3ccnn23)C1,-16.4%
CN1CCN(C(=O)C(C)(C)c2ccc(C(=O)Nc3cn4cc(-c5cc(C(C)(C)C)cc(C(C)(C)C)c5)ccc4n3)cc2)CC1,60.5%
O=C(Nc1ccc(Oc2ccc(F)cc2)cc1)N1CCc2ncccc2[C@H]1c1ccc(F)cc1,1.61%
COc1cc(C(=O)O)ncc1C#Cc1ccccc1NS(=O)(=O)c1cccc2c(N(C)C)ccnc12,20.6%
O=C(Nc1cnc(Oc2ccc(F)cc2)nc1)N1CCc2ncccc2[C@@H]1c1ccc(F)cc1,-8.08%
CCC(F)(F)c1cc(N2CCC(S(C)(=O)=O)CC2)nc2sc(C(N)=O)c(N)c12,1.69%
O=C1c2ccc(Nc3ccc(F)cc3F)cc2CCc2ccc(OC[C@H](O)CO)cc21,18.8%
CCC(=NO)C(C)=Cc1ccc(F)c(C)c1,4.47%
CCOc1ccc(S(=O)(=O)Nc2ccc(Cl)cc2C#Cc2cnc(C(=O)O)cc2OC)c2ncccc12,-51.7%
N#CC1(c2ccccn2)CCN(Cc2cc(C(=O)N3CCCC3)c(=O)n3ccccc23)CC1,-3.26%
CCCOc1ccc([C@H]2[C@H](C(=O)O)[C@@H](c3ccc4c(c3)OCO4)CN2CC(=O)Nc2c(CC)cccc2CC)cc1,-15.3%
COCc1nc2cnc3cc(-c4c(C)noc4C)c(OC[C@H]4CCNC4)cc3c2n1[C@H](C)c1ccccc1,-19.5%
Cc1ncc(-c2cc(Cl)ccc2F)cc1-n1c(=O)n(CC(N)=O)c2ccccc21,-22.1%
CN1C(=O)[C@@H](N2CCc3c(nn(Cc4ccccc4)c3Br)C2=O)COc2ccccc21,-15%
C[C@H](c1ccnc(Nc2nc3ccc(-c4cc(N(C)C)ncn4)cc3[nH]2)c1)N1CCN(C(=O)CC(F)(F)F)CC1,13.6%
CN(C)c1ncnc(-c2ccc3nc(Nc4cc(CN5CCN(C(=O)CC(F)(F)F)CC5)ccn4)[nH]c3c2)c1Cl,29.3%
NC(=O)c1ccc2nc(-c3ccc(C4(N)CCC4)cc3)c(-c3ccccc3)n2n1,-13.6%
CC1=C(C#N)C(c2ccc3[nH]nc(C)c3c2)C(C#N)=C(C)N1,8.21%
O=C(NNS(=O)(=O)c1ccccc1F)c1cc(F)cc(-c2ccccn2)c1,13.8%
CC1CCN(c2ccnc(NCc3cn(C)cn3)n2)CC1,3.36%
O=C(NNS(=O)(=O)c1ccccc1)c1cc(-c2ccnnc2)ccc1F,13.1%
COc1cccc(NC(=O)c2nc3scc(CN(C)Cc4ccccc4)c3c(=O)[nH]2)c1,-0.688%

# Single results of other studies
SMILES,target,conditions,quantity,value
C[C@H]1CC[C@H](n2c3cnccc3c3cnc(Nc4ccc5c(n4)CCN(C(=O)CO)C5)nc32)CC1,"cAMP-dependent protein kinase catalytic subunit PRKX (PRKX, Homo sapiens, UniProt P51817)",1 µM,receptor occupancy,-16.1%

# Some of these lines once more (series 5):
Structure (SMILES),inhibition
Cc1ccccc1Oc1cc(-n2c(=O)cc(C(F)(F)F)[nH]c2=O)c2ccccc2c1Cl,4.31%
CN1CCN(c2ccnc(NCCc3ccccc3)n2)CC1,19.5%
CN(C)[C@H]1CCN(c2cc(-c3ccccc3)nc3ccnn23)C1,-16.4%
CN1CCN(C(=O)C(C)(C)c2ccc(C(=O)Nc3cn4cc(-c5cc(C(C)(C)C)cc(C(C)(C)C)c5)ccc4n3)cc2)CC1,60.5%
O=C(Nc1ccc(Oc2ccc(F)cc2)cc1)N1CCc2ncccc2[C@H]1c1ccc(F)cc1,1.61%
